Experimental data gathered from unrelated publications.
Compare with care: the assays were run in different laboratories. Values joined by “and” are separate records of one study, mostly repeats; a detail may differ. Numbers after ± are the reported error.

The albumin of `CCCCCOc1ccc(-c2ccc(-c3ccc(C(=O)N[C@H]4C[C@@H](O)[C@@H](OCC[N+](C)(C)C)NC(=O)[C@@H]5[C@@H](O)[C@@H](C)CN5C(=O)[C@H]([C@@H](C)O)NC(=O)[C@H]([C@H](O)[C@@H](O)c5ccc(O)cc5)NC(=O)[C@@H]5C[C@@H](O)CN5C(=O)[C@H]([C@@H](C)O)NC4=O)cc3)cc2)cc1` is reported as 26.5 g/L (adult ICU patients, mITT, serum; dose not given, day 14).
`C=CC(=O)Nc1cc(Nc2nccc(Nc3cc(Cl)c(F)cc3C(C)(C)O)n2)c(OC)cc1N1CC[C@@H](N(C)C)C1`: “patients with pneumonia” 9.8% (human patients; oral, 300 mg, treatment-emergent adverse events).
`Brc1ccc(Oc2cc(Br)c(Br)cc2Br)c(Br)c1`: “dose fraction in milk fat” 82.5% (whole cow milk; 200 nM nominal).
`COc1nnc2ccc(N3CCC(c4ccc(OCCN5CCN(C)C(=O)[C@H]5C)cc4)CC3)nn12`: “patients with adverse event” 38.2% (refers to: fatigue; patients with solid tumours or lymphoma; oral, dose not given, all grades, treatment-emergent).
`COc1ncnn2ccc(-c3cnc4nc(C)n(Cc5nnc([C@@H](C)F)o5)c4c3)c12`: “incidence of TLS” 7.1% (human patients; oral, dose not given, grade 1 adverse drug reaction).
For `CCN1CCN(Cc2ccc(Nc3ncc(F)c(-c4cc(F)c5nc6n(c5c4)[C@H](C)CCC6)n3)nc2)CC1`, “weight loss any grade” read 29.2% (patients with advanced solid tumours; dose not given, phase Ia monotherapy).
For `Clc1cc2c(cc1Cl)Oc1c(ccc(Cl)c1Cl)O2`, “dose fraction in milk fat” read 86.6% (whole cow milk; 200 nM nominal).
`[O-][S+]1CCc2nc(N3CCC(c4ncc(Cl)cn4)CC3)nc(NC3(CO)CCC3)c21` (stereo not shown): “adverse event incidence” 33.3% (refers to: Headache; healthy male humans; single dose, all groups).
The Vmax of `Cc1ccc2ccccc2c1` is reported as 1370 pmol/min/mg (metabolism; pooled human liver microsomes; pH 7.4).
The AUC of `Cn1ncc(-c2nc(N[C@H]3CC[C@H](N)CC3)ncc2Cl)c1CC1CC1` is reported as 600 ng·h/mL (HPLC-MS/MS; human patients; oral, 3 mg, day 5).
For `C[C@]1(CO)Cc2ncn(-c3ccc(C#N)c(Cl)c3)c2C(=O)O1`, “subjects with drug-related orthostatic hypotension” read 0% (human; 0.7 mg single dose).
`CC(C)C[C@H](NC(=O)[C@H](C)NC(=O)[C@@H](NC(=O)[C@H](CCCNC(=N)N)NC(=O)[C@H](CC(C)C)NC(=O)[C@H](Cc1c[nH]c2ccccc12)NC(=O)[C@@H]1CCCN1C(=O)[C@@H](N)CCCCN)C(C)C)C(=O)N[C@@H](CS)C(=O)N1CCC[C@H]1C(=O)NCC(=O)O` has a hemolysis of 0.45% and 0.79% and 0.64% (sheep red blood cells; 32 µM, 1 h, 37 °C).
For `CN1C(=O)[C@@H](NC(=O)c2nnc(Cc3ccccc3)[nH]2)COc2cccnc21`, “participants with TEAE leading to death” read 0% (phase I single ascending dose; human, male and female; oral, 200 mg, fasted).
For `C=CC(=O)N1CC[C@H](n2nc(C#Cc3cc(OC)cc(OC)c3)c3c(N)ncnc32)C1`, “blood creatinine increased, any grade” read 11.6% (human patients, all; oral, dose not given, QD regimen, adverse drug reaction).
`C[C@@H](NC(=O)N1C(=O)[C@H](Cc2ccnc(N)c2)[C@H]1C(=O)O)C1CCCCC1`: “subjects with AEs leading to death” 0% (healthy Chinese adult volunteers; continuous intravenous infusion, dose not given, 5.0 days, all doses pooled).
`O=C(O)CCCOc1ccc(F)cc1-c1cc(-c2ccccc2C(F)(F)F)n(-c2ccccc2)n1` has a blood chemistry of 0.12 ± 0.01 mg/dL (refers to: T-Bil; Crl:CD(SD) rats, male, blood; iv, 25 µg/kg, 14 days).
For `COc1c(OCCCN2CCOCC2)ccc2c1N=C(NC(=O)c1cnc(N)nc1)N1CCN=C21`, “systolic blood pressure” read 121 ± 15.7 mmHg (human, solid tumour expansion cohort; 0.8 mg/kg, day 2, 25 h after infusion start).
`CCCCCCCCCCCCCCCC(=O)N[C@@H](CCC(=O)NCCCC[C@H](NC(=O)[C@H](CC(=O)O)NC(=O)[C@H](CO)NC(=O)[C@@H](NC(=O)[C@H](Cc1ccccc1)NC(=O)[C@@H](NC(=O)CNC(=O)[C@H](CCC(N)=O)NC(=O)[C@H](CO)NC(=O)[C@@H](N)Cc1c[nH]cn1)[C@@H](C)O)[C@@H](C)O)C(=O)N[C@@H](CO)C(=O)N[C@@H](CCC(=O)O)C(=O)N[C@@H](Cc1ccc(O)cc1)C(=O)N[C@@H](CC(C)C)C(=O)N[C@@H](CC(=O)O)C(=O)N[C@@H](CO)C(=O)N[C@@H](CCC(=O)O)C(=O)N[C@@H](CCCNC(=N)N)C(=O)N[C@@H](C)C(=O)N[C@@H](CCCNC(=N)N)C(=O)N[C@@H](CC(=O)O)C(=O)N[C@@H](Cc1ccccc1)C(=O)N[C@H](C(=O)N[C@@H](C)C(=O)N[C@@H](Cc1c[nH]c2ccccc12)C(=O)N[C@@H](CC(C)C)C(=O)N[C@@H](CCC(=O)O)C(=O)N[C@@H](C)C(=O)NCC(=O)NCC(=O)O)C(C)C)C(=O)O`: “treatment-related adverse events” 0% (refers to: decreased appetite; human, CrCl ≥90 mL/min; subcutaneous, 100 µg single dose).
Under “incidence of metabolism disorders”, `CC(C)c1nc(N(C)S(C)(=O)=O)nc(-c2ccc(F)cc2)c1/C=C/[C@@H](O)C[C@@H](O)CC(=O)O` is recorded as 0% (healthy human subjects; oral, dose not given, study CL-0537 safety set).
The phosphorus of `CC(C)[C@@H]1NC(=O)CNC(=O)[C@H](CC(N)=O)NC(=O)[C@H](CCCNC(=N)N)NC(=O)[C@H](Cc2ccc(O)cc2)NC(=O)[C@H](C(C)C)NC(=O)[C@@H](NC(=O)[C@@H](NC(=O)[C@H](CC(N)=O)NC(=O)[C@H](Cc2c[nH]c3ccccc23)NC(=O)[C@H](C)NC(=O)[C@H](Cc2ccccc2)NC(=O)CN)C(C)C)CSSC[C@@H](C(=O)N[C@@H](Cc2cnc[nH]2)C(=O)N[C@@H](CCCNC(=N)N)C(=O)N[C@@H](CCCNC(=N)N)C(=O)N[C@@H](C)C(=O)N[C@@H](CC(N)=O)C(N)=O)NC(=O)[C@H](C(C)C)NC(=O)[C@H](CCCNC(=N)N)NC1=O` is reported as 3.24 ± 0.07 mmol/L (ICR mice, serum; intraductal mammary, 10 mg/kg, day 5).
Under “median fetal accumulation”, `CCCC1CCC(C2CCC(c3ccc(F)c(F)c3)CC2)CC1` (stereo not shown) is recorded as 0.074 ng/g (rat, fetus; 1000 ng/mL in perfusate, middle dose, mixture of 21 LCMs).
`C[C@@H]1OC(=O)NN=C1c1ccc(-c2ccc(F)cc2)c(C(F)(F)F)c1`: “patients with adverse event” 20% (phase I trial, refers to: Dyspnoea all grades; human patients; dose not given, all dose groups).
For `COc1ncccc1-c1cnn2ccc(N3CCN(C(=O)OC(C)C)CC3)nc12`, the drug concentration was 310 nM (rat, thermal hyperalgesia model, brain; oral, 1 mg/kg, 180 min).
Under “grade 3 gingival bleeding”, `COc1cc2c(Oc3ccc4[nH]c(C)cc4c3F)ccnc2cc1OCC1(N)CC1` is recorded as 0% (paediatric recurrent refractory sarcoma; 10 mg).
Under “body weight gain”, `Oc1ccc(CSCc2ccc(O)cc2)cc1` is recorded as 6.87 ± 1 g (ICR mice male; oral, 3000 mg/kg, day 15, acute toxicity; reference: day 1).
For `CC(=O)c1c(C)c2cnc(Nc3ccc(C4CCN(CCS(C)(=O)=O)CC4)cn3)nc2n(C2CCCC2)c1=O`, “patients with Neutropenia” read 97.5% (HR+/HER2- advanced breast cancer patients; oral, dose not given, all grades,, total).
The Urea of `CCc1ccc(CC/C=C/c2ccc3c(c2)C(=O)CC3)cc1` is reported as 4.87 mM (Sprague-Dawley rat, male; oral, 120 mg/kg/day, 14 days).
Under “elimination rate constant”, `N=C(N)NCCNC(=O)C1(Nc2ccccc2)CCN(Cc2ccccc2)CC1` is recorded as 0.00108 ± 0.000389 s⁻¹ (female Sprague-Dawley rats; oral, 50 mg/kg).
For `CO[C@H]1C[C@@H]2CC[C@@H](C)[C@@](O)(O2)C(=O)C(=O)N2CCCC[C@H]2C(=O)O[C@H]([C@H](C)C[C@@H]2CC[C@@H](OC(=O)NCCOCCOCCOCCOCCOCCOCCOCCOCCC(=O)N3CCc4cc(Cn5nc(-c6ccc7oc(N)nc7c6)c6c(N)ncnc65)ccc4C3)[C@H](OC)C2)C[C@@H](O)[C@H](C)/C=C(\C)[C@@H](O)[C@@H](OC)C(=O)[C@H](C)C[C@H](C)/C=C/C=C/C=C/1C`, the TRAE incidence was 8.3% (phase 1 dose escalation, refers to: decreased appetite; advanced solid tumour patients; intravenous, 12 mg weekly, grade ≥3).
`O=C1Nc2cc3[nH]nc(-c4ccncc4)c3cc2CN1Cc1ccccc1` — result for “patients with nausea”: 67% (CTCAE v4.03; human, relapsed or refractory advanced solid tumours; intravenous, 3.6 mg/kg, pooled schedules).
`NC(=O)[C@H]1CCN(c2ncnc(N)c2F)C[C@@H]1N1CCC[C@@H](Nc2cc(Cl)cc(C(F)(F)F)c2)C1=O` — result for “grade ≥3 bilirubin increase”: 20% (B-cell malignancy patients; oral, 246 mg twice daily, dose).
With `Clc1ccc(-c2ccccc2)cc1` the gamma-glutamyltransferase was 1.3 ± 1.5 U/L (Sprague-Dawley rats, female, serum; inhalation, 23 µg/rat, 2 h after exposure).
For `CN1CC[C@@H](c2c(O)cc(O)c3c(=O)cc(-c4ccc(C(F)(F)F)cc4Cl)oc23)[C@@H]1CO`, “patients with adverse event” read 0% (refers to: Epistaxis; relapsed B-cell malignancies or AML; oral, 100 mg, grade 3-4, continuous dosing).
For `C[C@]1(O)C[C@@](N)(c2ccc(-c3nc4n(c3-c3ccccc3)COc3ccncc3-4)cc2)C1`, “patients with grade ≥3 Stomatitis TEAE” read 28.6% (human, advanced or metastatic solid tumours; intermittent, dose escalation total).
`O=C(Nc1ccccc1)C1CCN(C(=O)Oc2cccnc2)CC1` — result for “change in Tense-Relaxed score”: 11 (Bond-Lader VAS; healthy women; oral, 20 mg; reference: pre-dose baseline, direction not given).
`C[C@@H]1NC(=O)[C@H](CCCCNC(=O)CO/N=C/C(=O)NCCCC[C@@H]2NC(=O)[C@@H](Cc3ccccc3)NC(=O)[C@H](CC(=O)O)NC(=O)CNC(=O)[C@H](CCCNC(=N)N)NC2=O)NC(=O)CNC(=O)[C@@H]2CCCN2C(=O)[C@H](CCCCNC(=O)CO/N=C/C(=O)NCCCC[C@@H]2NC(=O)[C@@H](Cc3ccccc3)NC(=O)[C@H](CC(=O)O)NC(=O)CNC(=O)[C@H](CCCNC(=N)N)NC2=O)NC(=O)[C@H](CCCCNC(=O)CCNC(=O)CCNC(=O)CCNC(=O)[C@H](CCCCN)NC(=O)[C@H](Cc2ccccc2)NC(=O)CNC(=O)CN2CCCNCCNCCCNCC2)NC(=O)[C@H](CCCCNC(=O)CO/N=C/C(=O)NCCCC[C@@H]2NC(=O)[C@@H](Cc3ccccc3)NC(=O)[C@H](CC(=O)O)NC(=O)CNC(=O)[C@H](CCCNC(=N)N)NC2=O)NC(=O)CNC(=O)[C@@H]2CCCN2C(=O)[C@H](CCCCNC(=O)CO/N=C/C(=O)NCCCC[C@@H]2NC(=O)[C@@H](Cc3ccccc3)NC(=O)[C@H](CC(=O)O)NC(=O)CNC(=O)[C@H](CCCNC(=N)N)NC2=O)NC1=O` [copper-64 labelled] gave a tissue uptake of 12.3 ± 0.85 %ID/g (normal mice, kidney; intravenous, 0.74 MBq, 24 h post-injection).
`CC(C)C(=O)OC[C@H]1O[C@@H](n2ccc(NO)nc2=O)[C@H](O)[C@@H]1O` gave a freeze-thaw stability of 98.94 ± 0.91% (rat maternal placenta dialysate; 250 ng/mL, high concentration, three cycles, added: NHC 1000 ng/mL).
